Results gathered from unrelated publications.
Compare with care: the assays were run in different laboratories.
PIK3CB with p85 alpha: Phosphatidylinositol 4,5-bisphosphate 3-kinase catalytic subunit beta isoform, with p85 alpha (PIK3CB, Homo sapiens, UniProt P42338)
PIK3CB: Phosphatidylinositol 4,5-bisphosphate 3-kinase catalytic subunit beta isoform (PIK3CB, Homo sapiens, UniProt P42338)

For `C=CC(=O)Nc1cc(Nc2nccc(Nc3cc(Cl)c(F)cc3C(C)(C)O)n2)c(OC)cc1N1CC[C@@H](N(C)C)C1`, the inhibition was -1% (PIK3CB with p85 alpha; kinase activity, inhibitor; 1 µM).
The remaining activity of `Cc1ccc(NC(=O)c2ccc(C)c(C(F)(F)F)c2)cc1C#Cc1nn(C2CCC(O)CC2)c2ncnc(N)c12` (stereo not drawn) is reported as 78% (PIK3CB with p85 alpha; 10 µM, together with: 10 µM ATP).
`COc1ccc(F)cc1C(=O)NCc1ccc(-c2nn([C@@H](C)C(F)(F)F)c(N)c2C(N)=O)cc1` has an inhibition of 9.1% (PIK3CB; target engagement, competitive chemoproteomics; human PBMCs; 10 µM).
`COc1cc(-c2cncc3c2CN(C)Cc2cc(N4CCNCC4)ccc2-3)cc(OC)c1OC` gave a remaining activity of 94% (PIK3CB with p85 alpha; kinase activity; 1 µM, p110b/p85a)(h human, together with: ATP 10 µM; baseline: DMSO).
With `CN1CC(Oc2cnc(C#N)cc2-c2ccn3nc(NC(=O)C4CC4)cc3c2)C1` the inhibition was -2% (PIK3CB with p85 alpha; inhibitor, KinaseProfiler panel; 1 µM).
`Cc1ccc(C(=O)NCc2ccsc2)cc1C#Cc1cn(C(C)C)c2ncnc(N)c12` gave a remaining activity of 100% (PIK3CB with p85 alpha; kinase activity; 1 µM, together with: ATP at Km).
`CS(=O)(=O)Nc1cccc(-c2csc(NC(=O)CSc3nc4nccnc4c(=O)n3CCc3ccccc3)n2)c1` has an inhibition of -3% (Phosphatidylinositol 4,5-bisphosphate 3-kinase catalytic subunit beta isoform, with p85 beta (PIK3CB, Homo sapiens, UniProt P42338); kinase activity, inhibitor; 10 µM, together with: PIK3R2 complex).
`COc1cc(F)ccc1-c1ncnc(Nc2cccc(C[S@](C)(=N)=O)c2)n1` has a remaining activity of 99% (PIK3CB with p85 alpha; kinase activity; 10 µM, together with: ATP 10 µM).
For `CC[C@@H]1[C@H](F)C(=O)N[C@@H]1COc1nccc2cc(C(N)=O)c(OC)cc12`, the inhibition was 1.2% (PIK3CB; ATP-site probe binding, ActivX profiling; THP-1 cell lysate; 0.04 mM).
With `O=C(NC1CCC1)c1ccc2nc(-c3cccc(NS(=O)(=O)NCCN4CCCCC4)c3)cn2c1` the remaining activity was 77% (PIK3CB; enzyme activity; 10 µM).
`Cc1nc(NC(=O)N2CCC[C@H]2C(N)=O)sc1-c1ccnc(C(C)(C)C(F)(F)F)c1` has a remaining binding of 2.9% (PIK3CB; KINOMEscan; 10 µM).
The inhibition of `O=C(CSc1nc2nccnc2c(=O)n1CCc1ccccc1)Nc1nccs1` is reported as 8% (PIK3CB with p85 alpha; kinase activity, inhibitor; 10 µM, together with: PIK3R1 complex).

A few entries again:
`COc1cc(-c2cncc3c2CN(C)Cc2cc(N4CCNCC4)ccc2-3)cc(OC)c1OC` gave a remaining activity of 94% (PIK3CB with p85 alpha; kinase activity; 1 µM, p110b/p85a)(h human, together with: ATP 10 µM; baseline: DMSO).
For `CC[C@@H]1[C@H](F)C(=O)N[C@@H]1COc1nccc2cc(C(N)=O)c(OC)cc12`, the inhibition was 1.2% (PIK3CB; ATP-site probe binding, ActivX profiling; THP-1 cell lysate; 0.04 mM).
